Measured values pooled from the literature.
Each line is one published result; not all experiments were run side by side. ± gives the spread as reported.
UniProt Q9Y6L6, sequence (whole entry, looked up): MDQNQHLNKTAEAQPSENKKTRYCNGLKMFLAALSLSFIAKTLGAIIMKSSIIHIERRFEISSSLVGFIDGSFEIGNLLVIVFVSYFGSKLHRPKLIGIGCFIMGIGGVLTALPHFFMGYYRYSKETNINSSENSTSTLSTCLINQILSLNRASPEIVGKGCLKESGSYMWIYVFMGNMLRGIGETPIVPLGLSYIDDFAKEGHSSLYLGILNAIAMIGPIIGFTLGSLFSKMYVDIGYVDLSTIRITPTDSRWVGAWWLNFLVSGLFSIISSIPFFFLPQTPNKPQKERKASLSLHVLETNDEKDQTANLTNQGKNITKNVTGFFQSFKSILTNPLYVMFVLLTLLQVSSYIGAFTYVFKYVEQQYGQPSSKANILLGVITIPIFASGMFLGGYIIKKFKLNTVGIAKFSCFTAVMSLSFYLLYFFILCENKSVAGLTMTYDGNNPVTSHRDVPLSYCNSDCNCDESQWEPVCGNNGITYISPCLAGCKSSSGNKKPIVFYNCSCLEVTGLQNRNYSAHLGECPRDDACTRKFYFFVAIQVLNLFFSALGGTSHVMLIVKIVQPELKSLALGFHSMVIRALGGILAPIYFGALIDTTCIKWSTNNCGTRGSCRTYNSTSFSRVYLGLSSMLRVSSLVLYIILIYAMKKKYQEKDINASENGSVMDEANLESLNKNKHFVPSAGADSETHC

SMILES | tested on | assay | system | conditions | how to read | measurement | result
COc1cc(C(=O)NCCOCCOCCOCCNC(=O)c2ccc([18F])nc2)ccc1NC(=O)C1NC(CC(C)(C)C)C(C#N)(c2ccc(Cl)cc2F)C1c1cccc(Cl)c1F (stereo not drawn) | HepG2 tumour model | – | host not given, stomach | 2 h, tumour-bearing | – | tracer uptake | 1.72 %ID/g
CC[C@H](C)C(=O)N1CCC(NC(=O)Nc2ccc(OC(F)(F)F)c(F)c2)CC1 | – | – | human, plasma | oral, 8 mg, single dose, fasted, healthy volunteers | – | Vd/F | 244 L
CC(CCC(=O)NCC(=O)O)C1CCC2C3CCC4CC(OC5OC(C(=O)O)C(O)C(O)C5O)CCC4(C)C3CC(O)C12C (stereo not drawn) | SLCO1B1 (Homo sapiens, UniProt Q9Y6L6) | substrate | transfected HEK293 cells | 1 µM, 2 min | relative to: wild-type HEK293 cells | uptake ratio | 77.8
CN[C@](C)(C[18F])C(=O)O | MDA-MB-468 tumour model | – | host not given, tumour | 1 h, tumour-bearing | – | tracer uptake | 2 %ID/g
O=C(O)CCC(NP(=O)(O)OCCC[C@@H](NC(=O)CCC(NC(=O)CCCCCNC(=O)c1ccc([18F])cc1)C(=O)O)C(=O)O)C(=O)O (stereo partly drawn) | CWR22Rv1 tumour model | – | host not given, tumour | intravenous, 1 h, tumour-bearing | – | tracer uptake | 3.16 %ID/g
CCC(=O)N(C)c1ccc(Cl)c(Cl)c1 | Salmonella typhimurium | Ames test | TA1537 | 0.50 mg/plate, without S9 activation | – | revertants | 1 ± 0.6 revertants/plate
COc1ccc(CNc2nc(N3CCC[C@H]3CO)ncc2C(=O)NN)cc1Cl | Salmonella typhimurium | – | TA1535 | 1000 µg/plate, 48 h | – | revertant count | 41 ± 6
O=C(O)CCC(NP(=O)(O)OCCC[C@@H](NC(=O)CCC(NC(=O)CCCCCNC(=O)CCCCCNC(=O)c1ccc([18F])cc1)C(=O)O)C(=O)O)C(=O)O (stereo partly drawn) | CWR22Rv1 tumour model | – | host not given, kidney | intravenous, 1 h, tumour-bearing | – | tracer uptake | 5.87 %ID/g
CN(C)CC1CCCCC1(O)c1cccc(O)c1 (stereo not drawn) | – | – | Caco-2 | 1 µM, 3 h, pH 6.8 | – | Papp B→A | 16.4 ×10⁻⁶ cm/s
O=C(O)CC1C2CCCN3CCCC(CN1S(=O)(=O)c1ccc(Cl)cc1)C23 (stereo not drawn) | HEK293T | – | – | – | – | CC50 | > 200 µM
O=C(O)CCC(NP(=O)(O)OCCC[C@@H](NC(=O)CCC(NC(=O)c1ccc([18F])cc1)C(=O)O)C(=O)O)C(=O)O (stereo partly drawn) | PC-3 tumour model | – | host not given, muscle | intravenous, 2 h, tumour-bearing | – | tracer uptake | 0.17 %ID/g
COc1ccc(CNc2nc(N3CCC[C@H]3CO)ncc2C(=O)NNC(=O)c2cnc(N3CCC[C@H]3CO)nc2NCc2ccc(OC)c(Cl)c2)cc1Cl | Salmonella typhimurium | – | TA1535 | 62.5 µg/plate, 48 h, added: rat liver S9 | – | revertant count | 32 ± 2
Cc1nc(=O)c2cc(CN(C)c3ccc(C(=O)NCc4cccc(C(=O)O)c4)s3)ccc2[nH]1 | Mycobacterium tuberculosis | – | H37Rv | 10 µM, 24 h | relative to: amount consumed | parent recovered from bacteria | 14 ± 3%
Nc1nc2c([C@@H]3O[C@@H]4COP(=O)(O)O[C@H]5[C@@H](O)[C@H](n6cnc7c(=O)[nH]c(N)nc76)O[C@@H]5COP(=O)(O)O[C@H]4[C@H]3O)snc2c(=O)[nH]1 | – | – | – | – | relative to: parent monomeric nucleoside | relative emission quantum yield | 19%
C[C@@](O)(C(F)F)[C@H](NC(=O)c1ccc(C#CC#CC2CC2)cc1)C(=O)NO | – | – | CD-1 mouse | oral, 40 mg/kg, fasted | – | CL/F | 37.7 ± 7.5 mL/min/kg

Repeated from above:
SMILES | tested on | assay | system | conditions | how to read | measurement | result
O=C(O)CCC(NP(=O)(O)OCCC[C@@H](NC(=O)CCC(NC(=O)CCCCCNC(=O)c1ccc([18F])cc1)C(=O)O)C(=O)O)C(=O)O (stereo partly drawn) | CWR22Rv1 tumour model | – | host not given, tumour | intravenous, 1 h, tumour-bearing | – | tracer uptake | 3.16 %ID/g
